Results collected from several papers.
Each line is one published result; not all experiments were run side by side.
Route: oral

CC(C)c1nc(N(C)S(C)(=O)=O)nc(-c2ccc(F)cc2)c1/C=C/[C@@H](O)C[C@@H](O)CC(=O)O  participants with TEAE (item: Somnolence; human; 10 mg): 3.4%
C=CC(=O)NC1CCN(c2ncc3ncnc(Nc4ccc(Oc5ccc6c(c5)ncn6C)c(C)c4)c3n2)CC1  participants with cough TEAE (healthy male humans; 240 mg): 6.3%
CC(C)c1nc(N(C)S(C)(=O)=O)nc(-c2ccc(F)cc2)c1/C=C/[C@@H](O)C[C@@H](O)CC(=O)O  participants with headache (human; 10 mg, alone): 0%
CCn1c(=O)c(-c2cc(NC(=O)Nc3ccccc3)c(F)cc2Br)cc2cnc(NC)cc21  participants with drug-related TEAE (item: nervous system disorders; healthy human, matched to mild hepatic impairment; 50 mg single dose): 12.5%
CC(C)c1nc(CN(C)C(=O)N[C@@H](CCN2CCOCC2)C(=O)N[C@H](CC[C@H](Cc2ccccc2)NC(=O)OCc2cncs2)Cc2ccccc2)cs1  participants with adverse events (human; dose not given, catheter site induration, treatment-emergent): 0%
C[C@H]1O[C@@H](O[C@H]2[C@@H](O)C[C@H](O[C@H]3[C@@H](O)C[C@H](O[C@H]4CC[C@@]5(C)[C@H](CC[C@@H]6[C@@H]5C[C@@H](O)[C@]5(C)[C@@H](C7=CC(=O)OC7)CC[C@]65O)C4)O[C@@H]3C)O[C@@H]2C)C[C@H](O)[C@@H]1O  participants with TEAE (item: Headache; human; 0.25 mg): 10.3%
O=C(COc1ccc(Cl)cc1)NC12CC(c3nnc([C@H]4C[C@@H](OC(F)(F)F)C4)o3)(C1)C2  participants with headache (human both sexes; 145 mg once daily, 14 days): 71.4%
COC(=O)N[C@H](C(=O)N1CCC[C@H]1c1ncc(-c2cc(F)c3c(c2)O[C@@H](c2cnc(C4CC4)s2)n2c-3cc3cc(-c4cnc([C@@H]5CCCN5C(=O)[C@@H](NC(=O)OC)C(C)C)[nH]4)ccc32)[nH]1)C(C)C  participants with Constipation (healthy adult humans; 180 mg, 6 days): 12.5%
CN1C(=O)[C@@H](NC(=O)c2nnc(Cc3ccccc3)[nH]2)COc2cccnc21  participants with any AE of special interest (phase I single ascending dose; human, male and female; 100 mg, fasted): 0%

A few entries again:
CC(C)c1nc(CN(C)C(=O)N[C@@H](CCN2CCOCC2)C(=O)N[C@H](CC[C@H](Cc2ccccc2)NC(=O)OCc2cncs2)Cc2ccccc2)cs1  participants with adverse events (human; dose not given, catheter site induration, treatment-emergent): 0%
